{"data": "Published values gathered from unrelated publications", "note": "± marks the error that the study gave."}
{"Structure (SMILES)": "C(=C\\c1ccc(-c2ccccc2)cc1)/Cn1ccnc1", "organism": "Mycobacterium tuberculosis variant bovis BCG", "test": "microbial growth", "test system": "BCG", "measurement": "MIC50", "result": "0.7 mg/L"}
{"Structure (SMILES)": "CCC(=C(c1ccc(Cl)cc1)c1ccc(OCCN2CCCC2)cc1)c1ccc(Cl)cc1", "organism": "influenza A virus H1N1", "test": "cytopathic effect, visual CPE", "test system": "MDCK", "measurement": "EC50", "result": "5.6 mg/L"}
{"Structure (SMILES)": "COc1ccc2nc(C)cc(OCC(=O)Nc3cc(C)cc(C)c3)c2c1", "organism": "Moraxella catarrhalis", "test": "microbial growth, broth dilution", "test system": "1502", "measurement": "MIC", "result": "32 µM"}
{"Structure (SMILES)": "O=C(CN1CCCC2=CC3CC(CN4CCCCC34)C21)Nc1ccc(Br)c(C(F)(F)F)c1 (centres unmarked)", "organism": "vesicular stomatitis virus", "test": "pseudovirus entry", "setting": "VSV G pseudovirus", "measurement": "EC50", "result": "6 µM"}
{"Structure (SMILES)": "COc1ccc(CC(C)=C(c2ccc(Cl)cc2)c2ccc(OCCN3CCCCCC3)cc2)cc1", "organism": "influenza A virus H1N1", "test": "cytopathic effect, visual CPE", "test system": "MDCK", "measurement": "EC50", "result": "> 3.7 mg/L"}
{"Structure (SMILES)": "COc1ccc(CCNc2cc(-c3ccccc3)nc3ncnn23)cc1", "organism": "Mycobacterium tuberculosis variant bovis BCG", "test": "microbial growth", "test system": "BCG", "measurement": "MIC", "result": "1 µM"}
{"Structure (SMILES)": "CC(C)C[C@H](NC(=O)[C@H](CC(N)=O)NC(=O)[C@H](CCCCN)NC(=O)[C@H](CC(C)C)NC(=O)[C@H](Cc1ccccc1)NC(=O)CNC(=O)[C@H](CC(C)C)NC(=O)[C@@H](N)Cc1ccccc1)C(=O)N[C@@H](Cc1ccccc1)C(N)=O", "organism": "hepatitis C virus", "test system": "Huh-7.5.1, JFH-1", "setting": "concentration not given, added after infection, with: 3 mM Ca2+", "scale": "reference: Ca2+ alone", "measurement": "HCV RNA reduction", "result": "90%"}
{"Structure (SMILES)": "CCCC(=O)NCC(=O)N[C@@H](CC(C)C)C(=O)N[C@@H](CC(C)C)C(=O)N[C@@H](CCCCN)C(=O)N[C@@H](CCCNC(=N)N)C(=O)N[C@H](C(=O)N[C@@H](CCCCN)C(=O)N[C@H](C(=O)N[C@@H](CC(C)C)C(=O)N[C@@H](CC(C)C)C(N)=O)[C@@H](C)O)[C@@H](C)CC", "organism": "five bacterial species", "test": "bacterial growth", "measurement": "geometric mean MIC", "result": "194 µM"}
{"Structure (SMILES)": "O=S(=O)(c1ccc(Cl)c(Cl)c1)N1CCCC2=CC3CC(CN4CCCCC34)C21 (centres unmarked)", "organism": "vesicular stomatitis virus", "test": "pseudovirus entry", "setting": "VSV G pseudovirus", "measurement": "EC50", "result": "176 µM"}
{"Structure (SMILES)": "CCCC(=O)NCC(=O)N[C@@H](CC(C)C)C(=O)N[C@@H](CC(C)C)C(=O)N[C@@H](CCCCN)C(=O)N[C@@H](CCCNC(=N)N)C(=O)N[C@H](C(=O)N[C@@H](CCCCN)C(=O)N[C@H](C(=O)N[C@@H](CC(C)C)C(=O)N[C@@H](CC(C)C)C(=O)NCCCC[C@H](NC(=O)[C@H](CC(C)C)NC(=O)[C@H](CC(C)C)NC(=O)[C@@H](NC(=O)[C@H](CCCCN)NC(=O)[C@@H](NC(=O)[C@H](CCCNC(=N)N)NC(=O)[C@H](CCCCN)NC(=O)[C@H](CC(C)C)NC(=O)[C@H](CC(C)C)NC(=O)CNC(=O)CCC)[C@@H](C)CC)[C@@H](C)O)C(=O)NCCCC[C@H](NC(=O)[C@H](CCCCNC(=O)[C@H](CC(C)C)NC(=O)[C@H](CC(C)C)NC(=O)[C@@H](NC(=O)[C@H](CCCCN)NC(=O)[C@@H](NC(=O)[C@H](CCCNC(=N)N)NC(=O)[C@H](CCCCN)NC(=O)[C@H](CC(C)C)NC(=O)[C@H](CC(C)C)NC(=O)CNC(=O)CCC)[C@@H](C)CC)[C@@H](C)O)NC(=O)[C@H](CC(C)C)NC(=O)[C@H](CC(C)C)NC(=O)[C@@H](NC(=O)[C@H](CCCCN)NC(=O)[C@@H](NC(=O)[C@H](CCCNC(=N)N)NC(=O)[C@H](CCCCN)NC(=O)[C@H](CC(C)C)NC(=O)[C@H](CC(C)C)NC(=O)CNC(=O)CCC)[C@@H](C)CC)[C@@H](C)O)C(N)=O)[C@@H](C)O)[C@@H](C)CC", "organism": "five bacterial species", "test": "bacterial growth", "measurement": "geometric mean MIC", "result": "13.9 µM"}
{"Structure (SMILES)": "N=C(N)NCCC[C@H](NC(=O)[C@H](Cc1ccccc1)NC(=O)[C@H](Cc1ccc(O)cc1)NC(=O)[C@H](Cc1c[nH]c2ccccc12)NC(=O)[C@@H](N)CCCCN)C(=O)N[C@@H](Cc1c[nH]c2ccccc12)C(=O)O", "organism": "Xanthomonas citri, Burkholderia, Pseudomonas syringae", "setting": "100 µg/mL, summed over five organisms", "scale": "direction not given", "measurement": "antimicrobial spectrum score", "result": "< 14"}
{"Structure (SMILES)": "CCC(=C(c1ccc(Cl)cc1)c1ccc(OCCCN(C)C)cc1)c1ccccc1", "organism": "influenza A virus H1N1", "test": "cytopathic effect, visual CPE", "test system": "MDCK", "measurement": "EC50", "result": "0.29 mg/L"}
{"Structure (SMILES)": "Cc1ccc2nc(C(F)(F)F)c(C(=O)NCc3cccc(Cl)c3)n2c1", "organism": "Moraxella catarrhalis", "test": "microbial growth, broth dilution", "test system": "1502", "measurement": "MIC", "result": "64 µM"}
{"Structure (SMILES)": "CC(=C(c1ccc(Cl)cc1)c1ccc(OCCN2CCCC2)cc1)c1ccc(Cl)cc1", "organism": "influenza A virus H1N1", "test": "cytopathic effect, visual CPE", "test system": "MDCK", "measurement": "EC50", "result": "3.2 mg/L"}
{"Structure (SMILES)": "Cc1ccc2ccc3ccc(C)nc3c2n1.Cc1ccc2ccc3ccc(C)nc3c2n1.O.[Cl-].[Cl-].[Cl-].[Yb+3]", "organism": "Salmonella enterica serovar Typhi", "setting": "5 mg/mL, 4 to 48 h", "measurement": "bacterial count decrease", "result": "~100%"}
{"Structure (SMILES)": "Cc1cccc(-c2nc(Nc3ccncn3)c3c(C)csc3n2)n1", "organism": "Mycobacterium tuberculosis variant bovis BCG", "test": "microbial growth", "test system": "BCG", "measurement": "MIC", "result": "0.3 µM"}
{"Structure (SMILES)": "Clc1ccc(CN2CCCC3=CC4CC(CN5CCCCC45)C32)cc1 (centres unmarked)", "organism": "vesicular stomatitis virus", "test": "pseudovirus entry", "setting": "VSV G pseudovirus", "measurement": "EC50", "result": "40.2 µM"}
{"Structure (SMILES)": "CC(C)C[C@H](NC(=O)[C@H](Cc1c[nH]cn1)NC(=O)[C@H](Cc1ccc(O)cc1)NC(=O)[C@H](CCCNC(=N)N)NC(=O)[C@H](Cc1ccc(O)cc1)NC(=O)[C@H](CCCCN)NC(=O)[C@H](CCCCN)NC(=O)c1ccc(CN/C(=N/C(=O)c2ccccc2)Nc2ccc(Br)cc2)cc1)C(=O)N[C@@H](CCCCN)C(=O)N1CCC[C@H]1C(=O)N[C@@H](Cc1ccccc1)C(=O)NCCCC[C@H](NC(=O)[C@H](Cc1ccccc1)NC(=O)[C@@H]1CCCN1C(=O)[C@H](CCCCN)NC(=O)[C@H](CC(C)C)NC(=O)[C@H](Cc1c[nH]cn1)NC(=O)[C@H](Cc1ccc(O)cc1)NC(=O)[C@H](CCCNC(=N)N)NC(=O)[C@H](Cc1ccc(O)cc1)NC(=O)[C@H](CCCCN)NC(=O)[C@H](CCCCN)NC(=O)c1ccc(CN/C(=N/C(=O)c2ccccc2)Nc2ccc(Br)cc2)cc1)C(N)=O", "organism": "Leishmania amazonensis", "test": "intracellular amastigote growth, Giemsa staining", "test system": "infected macrophages", "setting": "24 h", "measurement": "IC50", "result": "2.25 ± 0.35 µM"}
{"Structure (SMILES)": "CCN(CC)CCOc1ccc(C(=C(C)c2ccc(Cl)cc2)c2ccc(Cl)cc2)cc1", "organism": "influenza A virus H1N1", "test": "cytopathic effect, visual CPE", "test system": "MDCK", "measurement": "EC50", "result": "> 0.71 mg/L"}
{"Structure (SMILES)": "Cc1cccc(-c2nc(Nc3ccncn3)c3sccc3n2)n1", "organism": "Mycobacterium tuberculosis variant bovis BCG", "test": "microbial growth", "test system": "BCG", "measurement": "MIC", "result": "0.3 µM"}
{"Structure (SMILES)": "O=C(c1cc(Cl)cc(Cl)c1)N1CCCC2=CC3CC(CN4CCCCC34)C21 (centres unmarked)", "organism": "vesicular stomatitis virus", "test": "pseudovirus entry", "setting": "VSV G pseudovirus", "measurement": "EC50", "result": "79.2 µM"}
{"Structure (SMILES)": "COc1ccc(-c2ccc3c(c2)CCC3n2ccnc2)cc1 (centres unmarked)", "organism": "Mycobacterium tuberculosis variant bovis BCG", "test": "microbial growth", "test system": "BCG", "measurement": "MIC50", "result": "1.1 mg/L"}
{"Structure (SMILES)": "O=C(CN1CCCC2=CC3CC(CN4CCCCC34)C21)Nc1cc(Cl)cc(OC(F)(F)F)c1 (centres unmarked)", "organism": "vesicular stomatitis virus", "test": "pseudovirus entry", "setting": "VSV G pseudovirus", "measurement": "EC50", "result": "21.8 µM"}
{"Structure (SMILES)": "Cc1cc(Oc2nc(N3CC[C@@H](c4ccncc4)C3)ncc2F)[nH]n1", "organism": "Mycobacterium tuberculosis", "test": "microbial growth", "test system": "H37RV", "measurement": "MIC90", "result": "0.0086 µM"}
{"Structure (SMILES)": "CCC(=C(c1ccc(Cl)cc1)c1ccc(OCCN2CCCC2)cc1)c1ccc(OC)cc1", "organism": "influenza A virus H1N1", "test": "cytopathic effect, visual CPE", "test system": "MDCK", "measurement": "EC50", "result": "> 3.2 mg/L"}
{"Structure (SMILES)": "O=C(CN1CCCC2=CC3CC(CN4CCCCC34)C21)Nc1ccc(Cl)cc1 (centres unmarked)", "organism": "vesicular stomatitis virus", "test": "pseudovirus entry", "setting": "VSV G pseudovirus", "measurement": "EC50", "result": "155 µM"}
{"Structure (SMILES)": "CCC(=C(c1ccc(Cl)cc1)c1ccc(OCCN2CCOCC2)cc1)c1ccc(OC)cc1", "organism": "influenza A virus H1N1", "test": "cytopathic effect, visual CPE", "test system": "MDCK", "measurement": "EC50", "result": "> 7.5 mg/L"}
{"Structure (SMILES)": "CN(CC(=O)N1CCCC2=CC3CC(CN4CCCCC34)C21)c1ccc(Cl)cc1 (centres unmarked)", "organism": "vesicular stomatitis virus", "test": "pseudovirus entry", "setting": "VSV G pseudovirus", "measurement": "EC50", "result": "85.6 µM"}
{"Structure (SMILES)": "C[C@@](O)(C(F)F)[C@H](NC(=O)c1ccc(C#CC#CC2CC2)cc1)C(=O)NO", "organism": "Yersinia", "measurement": "MIC90", "result": "0.125 mg/L"}
{"note": "A few entries again:"}
{"Structure (SMILES)": "Cc1cccc(-c2nc(Nc3ccncn3)c3c(C)csc3n2)n1", "organism": "Mycobacterium tuberculosis variant bovis BCG", "test": "microbial growth", "test system": "BCG", "measurement": "MIC", "result": "0.3 µM"}
{"Structure (SMILES)": "COc1ccc(CCNc2cc(-c3ccccc3)nc3ncnn23)cc1", "organism": "Mycobacterium tuberculosis variant bovis BCG", "test": "microbial growth", "test system": "BCG", "measurement": "MIC", "result": "1 µM"}
{"Structure (SMILES)": "CCC(=C(c1ccc(Cl)cc1)c1ccc(OCCN2CCOCC2)cc1)c1ccc(OC)cc1", "organism": "influenza A virus H1N1", "test": "cytopathic effect, visual CPE", "test system": "MDCK", "measurement": "EC50", "result": "> 7.5 mg/L"}
{"Structure (SMILES)": "Cc1cccc(-c2nc(Nc3ccncn3)c3sccc3n2)n1", "organism": "Mycobacterium tuberculosis variant bovis BCG", "test": "microbial growth", "test system": "BCG", "measurement": "MIC", "result": "0.3 µM"}
